Assay results pooled from the literature.
Every numbered part comes from another study and shows a few of its results, in no order.

Set 1 — method: protein-binding microarray; molecule type: double-stranded DNA, one strand shown; matrix: in vitro; tested at: 250 nM; notes: 60-bp whole probe; added: salmon DNA 0.4 mg/ml; relative to: random background probes; direction: higher = stronger binding; measurement: log fluorescence; constant ends, left off below: GCCTAGCAC … GTCTTGATTCGCTTGACGCTGCTG
Target: Interferon regulatory factor 7, full length, phosphomimetic (IRF7, Homo sapiens, UniProt Q92985, residues 1-503, S101K/S471D/S472D/S475D/S476D/S477D/S483D/S484D/S487D)
Sequence of UniProt Q92985 (whole entry, unmodified, looked up): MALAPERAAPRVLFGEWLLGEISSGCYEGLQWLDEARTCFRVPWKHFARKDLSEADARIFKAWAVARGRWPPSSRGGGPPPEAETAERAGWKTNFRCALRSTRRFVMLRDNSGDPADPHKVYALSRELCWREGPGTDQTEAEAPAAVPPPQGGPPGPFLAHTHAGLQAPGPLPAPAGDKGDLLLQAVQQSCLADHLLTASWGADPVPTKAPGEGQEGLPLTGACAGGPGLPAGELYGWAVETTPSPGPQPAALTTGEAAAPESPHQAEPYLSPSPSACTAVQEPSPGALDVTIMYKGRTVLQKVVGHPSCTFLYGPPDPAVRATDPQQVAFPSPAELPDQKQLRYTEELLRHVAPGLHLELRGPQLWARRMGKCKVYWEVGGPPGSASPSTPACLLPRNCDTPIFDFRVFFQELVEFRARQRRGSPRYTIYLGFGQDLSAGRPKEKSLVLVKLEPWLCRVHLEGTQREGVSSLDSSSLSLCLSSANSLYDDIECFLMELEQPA
GACGGTTCCCTTTACCTGACGTGCTAG: 1.21 z-score
TTAGATTTCAGTCTCGATTCGTGCTAG: 5.25 z-score
TTAGGTTACGGGTTTCGGTTAGTGCTA: 6.65 z-score
TGAGGTTTCGGTTTCGGTTAGTGCTAG: 14.6 z-score
TCAATTGGTTGAACATGACTGTGCTAG: 0.242 z-score
TTAGATCTCAGTATAGATTAGTGCTAG: 0.0796 z-score
GACGGTTGCCTTATCCTGACGTGCTAG: -0.334 z-score
CTAGGACTGGGGACTGGGTTAGTGCTA: -0.394 z-score
TCACAAATGCCCTCTCCAACTGTGCTA: -0.236 z-score
TCATATATTATATATACAACTGTGCTA: 0.86 z-score
TCAATTATATATATCATACTGTGCTAG: 0.53 z-score
GCCGGTCTCCTTCTCCTGACGTGCTAG: 0.378 z-score
GACCAACTGGGGTTTCGAGACGTGCTA: 2.16 z-score
ATAGTGATAGCTCTGGTAAAGTGCTAG: -1.02 z-score
GACGGTATCGCGACTGGGGACGTGCTA: -0.389 z-score
TTAGCTTTCCTTTCCCTTTAGTGCTAG: 1.93 z-score

Set 2 — method: protein binding microarray; molecule type: double-stranded DNA, one strand shown; matrix: in vitro; tested at: not given; relative to: not given; direction: higher = stronger binding; measurement: E-score
Target: Histone acetyltransferase KAT6A, winged helix 1, GST fusion (KAT6A, Homo sapiens, UniProt Q92794, residues 1-85)
Notes: 8-mer, flanks averaged, mean of 2 arrays, mostly near background
Target sequence (chain): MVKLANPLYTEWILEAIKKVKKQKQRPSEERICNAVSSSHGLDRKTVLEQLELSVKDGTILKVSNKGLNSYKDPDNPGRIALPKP
GAAGCCCA: -0.131
ACCGCATA: 0.13
GTAGCTGA: -0.0794
ACATAGTC: 0.0393
AATGTAGG: -0.105
CATACAAG: -0.172
CTAGTCTA: -0.196
ATCCTTGG: -0.181
TCGCGCAA: 0.308
GACCTAGC: -0.0304
CCATTACA: -0.0157
ACACTTCC: -0.0224
CTTATCGC: 0.137
GGCGTAAC: 0.267
CACCTTGC: -0.0841

Set 3 — method: RNA Bind-n-Seq; molecule type: RNA; matrix: in vitro; tested at: 365 nM; relative to: no-protein control; direction: higher = stronger binding; measurement: RBNS enrichment (R)
Target: RNA binding protein fox-1 homolog 2, RRM domain, GST-SBP tag (RBFOX2, Homo sapiens, UniProt O43251-10, residues 100-194)
Notes: natural RNA segment, single round, ends assumed
Constant ends, left off below: GGGAGUUCUACAGUCCGACGAUC … UGGAAUUCUCGGGUGCCAA
Target sequence (chain): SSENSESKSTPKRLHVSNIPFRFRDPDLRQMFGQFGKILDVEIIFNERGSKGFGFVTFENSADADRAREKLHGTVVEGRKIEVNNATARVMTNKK
CAAGCAACUGAAUUUAUAUGUAAAAAUAACAUUUAGACCUGUGGAUCAAAGAUUAUUUUCAAAAAUGAGAUAUCAAUUUGGUAUCAGUAAAAAGUGUCUUUUCUCUUAGU: 0.395
UUAUCAUUCUCUCUGCCUGCCCACCCCCUUUUUUGUAUAGCCCAAGAACCACUUCCAUGCCAUACUGUAACAUUCCAACAUCUUUAGCUGAUCAGAUCUCUCCAUAUCCU: 1.1
AUCCAUCUCAAGAUAGAACCUAAGUAUUUCACGUCUGACCAGCAGUCUCUGUGGUUCUGCACAGAUUUUGGAAGGUCUUCACUACUCUUGGAAACAAACCCAUGAAUGAA: 0.304
GAUUCUCUCCUCUCCCAUCCCAGAAAACAAAACAAAAUAAUGCUUUUCGAAAUUGUUUCUAGGACUUUAAAACAUAAUGGUAUAUCCAAAAUUCUUUAUUUCAGAAUGCA: 1.33
UAGGAUGGAAUCUUGAAACAUAUUCUGACCUCCAAUGAAAAGAUAUGGGCAUACAAGGUGAGUUGUACGUAGAACUAAAUCCUUGAGUGUUUCCCACCUGACUCUACUAU: 0.305
UGGCUUAGAAGUGAGGCUCCCUUGAGGUAGGGGUGAGGAUGCAGUACCGGGAAAGUUGGUUAUCUUGGGGUCUCAGCUUCAUUACUGCUUAGGGUUUCCCUGCCCACUCU: 0.519
AAGGUUAAGGUCGUGGCAGCAGAUGCCUAGCUUCUUAUUUAAAAAGUUGAGUGCACCCAGCCAUUUUCUGUUUUAAAGAUAGGUUAAUAUAGCCAAGAGGGUCAUACAGC: 0.375
CAGGCUUAGAACUUGCAGAGUGUGUAUUCUUGGAUGGCUGAUGCAUCGACUUGCAUUCCCACUUAACACUUUGAUUAGCAUGAACUUGCCAAUCAAAAAAUGACAAUCAA: 0.79
AAAAAAAAGAAAAAGCAAGAGUUUUUAUUAUGAUGUAAUACCGGUAGAAUAUUGAAUAUUUAAAAGGCACACUACAUCUGAUAGUCAAUGUAAAUAUUUUCUUUCCAAGU: 0.64
CAUAUAGGGACCCCACCAAGAGGCUCUCCUCUCCCCUUCUUAAUCCCAGUAUAGACUGAGUGUCCACUUCAGCAAAGGUGUUUUCAUCCCAGCCUUGGUUUGGAGCUUGC: 0.511
GUGCUAUUCACGCAGGUUUAUUCCCUCCAUGGCCUCCGGGCUUUGCAUGUCUAUGAUGUGUGUGUCGCUGGGAAGGUCAUGCUUGCCAGUUAUGGGUGGAUCGCAGCUCU: 0.346
UGCUUCGUGUGUGUCCCCACACAACACACACUUAAAGCCAUCUGUCACUCUGUAAGUUAUUUUGUACAUUCUCUACUCUUAAAAGUGUCCCCCAGUCAGUUCCUUUAACA: 0.388

Set 4 — method: competition protein-binding microarray; molecule type: double-stranded DNA, one strand shown; matrix: in vitro; tested at: 2 µM; added: Cbf1 competitor, 0.05 µM; direction: higher = stronger binding; measurement: fluorescence intensity; constant ends, left off below: … GTCTTGATTCGCTTGACGCTGCTG
Target: Phosphate system positive regulatory protein PHO4, full length, GST-tagged (PHO4, Saccharomyces cerevisiae, UniProt P07270, residues 1-312)
Notes: whole 60-bp probe, lowest competitor level
Residues (chain): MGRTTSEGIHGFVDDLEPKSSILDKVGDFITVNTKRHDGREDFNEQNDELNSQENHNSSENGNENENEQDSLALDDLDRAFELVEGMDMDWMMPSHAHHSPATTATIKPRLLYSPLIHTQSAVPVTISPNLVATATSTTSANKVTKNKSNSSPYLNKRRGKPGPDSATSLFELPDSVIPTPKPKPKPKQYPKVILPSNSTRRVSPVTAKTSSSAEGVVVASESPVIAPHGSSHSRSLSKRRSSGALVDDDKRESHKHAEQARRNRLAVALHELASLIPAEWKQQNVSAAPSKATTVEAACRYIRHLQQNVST
AACGAGCTCTGCTGGCACGCATTGAAGTTGGTTCAT: 9800 a.u.
ATTGTTTGGCTTCGTCACGTGGGTAAGTGCCGGAGA: 15400 a.u.
CCCCTCCTGCCTACACGCATGCGGCTTTGATCCTTC: 6730 a.u.
GTCTTGTCTCATTGCTATGTGGGTGTCCCCACTTCA: 5060 a.u.
GTCCCCACCTCCTGTCACATGACAATTTTTGTTACT: 6940 a.u.
TTCCTGCTCTCGTTCCACGTTGTCATCCCACCCATT: 11800 a.u.
CTTGCAAACAGCGGCCACGTCGCATCAAGTGGTGGC: 6310 a.u.
AAAGCGGTAATTTGCGGCGTGGGTGCAGATATCTAT: 7880 a.u.
CGTCCTAGTGATTGGCCTGTGGGTGCCATGAGGAAG: 6480 a.u.
CTAACGAAGGTTTGTCACCGGACTTACAAGCCAAGT: 2610 a.u.
TTATATTGTGTGAAGCACATGCCACACTTTCCAAAA: 10900 a.u.
CAAATCTCGGAATTTATCATGACGGATTACATAACA: 3190 a.u.
TAAGGCCTTTATTGCGTCGTGCTTTCTCCTCTCATA: 6580 a.u.
AAATTACTAAGTTTTCACGTGTTCTACCCCGTATGA: 15400 a.u.

Set 5 — method: RNA Bind-n-Seq; molecule type: RNA; matrix: in vitro; tested at: not given; notes: RNA with constant flanks, ends assumed; relative to: input RNA pool; direction: higher = stronger binding; measurement: bound/input enrichment
Target: RING finger protein unkempt homolog, zinc fingers 1-6, GST-SBP tag (UNK, Homo sapiens, UniProt Q9C0B0, residues 30-357)
Sequence of UniProt Q9C0B0 (30-357, looked up): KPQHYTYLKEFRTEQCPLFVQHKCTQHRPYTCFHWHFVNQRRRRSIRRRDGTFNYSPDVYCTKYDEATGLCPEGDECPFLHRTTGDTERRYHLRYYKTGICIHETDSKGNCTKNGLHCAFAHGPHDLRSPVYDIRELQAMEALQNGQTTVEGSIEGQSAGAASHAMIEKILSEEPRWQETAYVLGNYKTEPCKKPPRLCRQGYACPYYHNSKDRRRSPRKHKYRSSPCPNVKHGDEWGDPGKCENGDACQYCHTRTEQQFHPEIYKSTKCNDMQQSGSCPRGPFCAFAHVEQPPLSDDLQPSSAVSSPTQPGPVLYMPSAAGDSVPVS
Constant ends, left off below: GGGAGUUCUACAGUCCGACGAUC … CAACAGAGGAUUGAGCAUCA
CCGUUUGACAACACUACCUACAAGAACCUGCAGCAUCAUGACUACAGCACGUACACCUUCUCCGACCUCAACCUCGAACUCUCAAAAUUCAGGAUGCCUCAGCCCUCCUCAGGCCGGGAG: 0.262 ratio
AAAGGACUUACUGAGCAGCAAAAGGAAGGCAUCCGCAUGGUGACAAGGGUGAUGCUGUCCUCCGAAGGCGAAGACGGGCUGGAUGAAAUUUAUUCCUUCAGUGAGAGUCUACGACAACUG: 0.257 ratio
GGUGUAGAAUUGGGUUCAGUUUGGCAAAGACUUGGUGCAGAUGUGACAGCAGUUGAAUUUUCCGGUCAUGUAGGUGGAGUUGGAAUUGAUAUGGAGAUAUCUAAAAACUUUCAACGCAUC: 0.385 ratio
UCAUUGUCUUUUUUUUCCUCUUUUCUCUGUAAUUUGUUACUAAACAAAUUCCAGAAUUUGUUCCGCCGCUGAGUGUUCCUGAGUUGCCUAGUAGCAAUAAAACAAGUGAAUAGGAAAAUA: 0.574 ratio
UUUGCAGUUUAUGAUGGUCAUGCUGGAUCCCGAGUGGCAAAUUACUGCUCAACACAUUUAUCCGAACACAUCACUACUAACGAAGACUUUAGGGCAGCUGGAAAAUCAGGAUCUGCUCUU: 0.247 ratio
CCAUCCCUCAGUGACAGCAUGCCGUCUGUAGCAGAUUCCCACUCCAGUCAUUUUUCUGAAUUCCGCUGCUCAGACUUAGAAAGCAUGAGAACGUCCUGUAGUCACGGCUCCAGUGAUUGC: 0.274 ratio
GGUGGAGAUGGAGAUGAUAUGGAAAUAUUCAUGGAGGAGAUGAGAGAAAUCAGAAGAAAACUCCGGGAGCUGCAGUUGAGGAAUUGUCUGCGUAUCCUUAUGGGGGAGCUCUCUAAUCAC: 0.51 ratio

A few entries again (set 1):
GACGGTATCGCGACTGGGGACGTGCTA: -0.389 z-score
ATAGTGATAGCTCTGGTAAAGTGCTAG: -1.02 z-score
TGAGGTTTCGGTTTCGGTTAGTGCTAG: 14.6 z-score
TCAATTATATATATCATACTGTGCTAG: 0.53 z-score
CTAGGACTGGGGACTGGGTTAGTGCTA: -0.394 z-score
TCATATATTATATATACAACTGTGCTA: 0.86 z-score
TTAGGTTACGGGTTTCGGTTAGTGCTA: 6.65 z-score
